Published values from different studies.
Parts stem from different laboratories: compare values within a part only.
Chain of UniProt Q14164 (whole entry, looked up): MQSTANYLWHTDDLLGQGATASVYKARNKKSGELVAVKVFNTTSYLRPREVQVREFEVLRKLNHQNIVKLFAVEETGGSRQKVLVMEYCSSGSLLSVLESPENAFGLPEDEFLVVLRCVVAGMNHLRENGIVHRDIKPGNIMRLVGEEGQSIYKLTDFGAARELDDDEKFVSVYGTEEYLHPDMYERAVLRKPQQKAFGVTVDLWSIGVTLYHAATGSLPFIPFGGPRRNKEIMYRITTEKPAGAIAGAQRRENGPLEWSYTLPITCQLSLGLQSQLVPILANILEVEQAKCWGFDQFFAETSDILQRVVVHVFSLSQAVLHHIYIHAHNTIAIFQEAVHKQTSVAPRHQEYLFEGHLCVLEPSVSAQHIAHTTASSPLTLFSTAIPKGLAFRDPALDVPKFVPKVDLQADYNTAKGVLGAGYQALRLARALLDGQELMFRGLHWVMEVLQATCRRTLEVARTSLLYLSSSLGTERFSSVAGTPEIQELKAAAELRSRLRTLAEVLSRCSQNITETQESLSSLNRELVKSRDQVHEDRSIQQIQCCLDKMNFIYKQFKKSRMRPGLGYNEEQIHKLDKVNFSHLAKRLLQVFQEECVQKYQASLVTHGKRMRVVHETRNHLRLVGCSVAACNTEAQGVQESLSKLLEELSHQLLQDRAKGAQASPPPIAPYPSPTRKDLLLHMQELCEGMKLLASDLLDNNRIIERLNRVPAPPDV
Chain of UniProt O75747 (whole entry, looked up): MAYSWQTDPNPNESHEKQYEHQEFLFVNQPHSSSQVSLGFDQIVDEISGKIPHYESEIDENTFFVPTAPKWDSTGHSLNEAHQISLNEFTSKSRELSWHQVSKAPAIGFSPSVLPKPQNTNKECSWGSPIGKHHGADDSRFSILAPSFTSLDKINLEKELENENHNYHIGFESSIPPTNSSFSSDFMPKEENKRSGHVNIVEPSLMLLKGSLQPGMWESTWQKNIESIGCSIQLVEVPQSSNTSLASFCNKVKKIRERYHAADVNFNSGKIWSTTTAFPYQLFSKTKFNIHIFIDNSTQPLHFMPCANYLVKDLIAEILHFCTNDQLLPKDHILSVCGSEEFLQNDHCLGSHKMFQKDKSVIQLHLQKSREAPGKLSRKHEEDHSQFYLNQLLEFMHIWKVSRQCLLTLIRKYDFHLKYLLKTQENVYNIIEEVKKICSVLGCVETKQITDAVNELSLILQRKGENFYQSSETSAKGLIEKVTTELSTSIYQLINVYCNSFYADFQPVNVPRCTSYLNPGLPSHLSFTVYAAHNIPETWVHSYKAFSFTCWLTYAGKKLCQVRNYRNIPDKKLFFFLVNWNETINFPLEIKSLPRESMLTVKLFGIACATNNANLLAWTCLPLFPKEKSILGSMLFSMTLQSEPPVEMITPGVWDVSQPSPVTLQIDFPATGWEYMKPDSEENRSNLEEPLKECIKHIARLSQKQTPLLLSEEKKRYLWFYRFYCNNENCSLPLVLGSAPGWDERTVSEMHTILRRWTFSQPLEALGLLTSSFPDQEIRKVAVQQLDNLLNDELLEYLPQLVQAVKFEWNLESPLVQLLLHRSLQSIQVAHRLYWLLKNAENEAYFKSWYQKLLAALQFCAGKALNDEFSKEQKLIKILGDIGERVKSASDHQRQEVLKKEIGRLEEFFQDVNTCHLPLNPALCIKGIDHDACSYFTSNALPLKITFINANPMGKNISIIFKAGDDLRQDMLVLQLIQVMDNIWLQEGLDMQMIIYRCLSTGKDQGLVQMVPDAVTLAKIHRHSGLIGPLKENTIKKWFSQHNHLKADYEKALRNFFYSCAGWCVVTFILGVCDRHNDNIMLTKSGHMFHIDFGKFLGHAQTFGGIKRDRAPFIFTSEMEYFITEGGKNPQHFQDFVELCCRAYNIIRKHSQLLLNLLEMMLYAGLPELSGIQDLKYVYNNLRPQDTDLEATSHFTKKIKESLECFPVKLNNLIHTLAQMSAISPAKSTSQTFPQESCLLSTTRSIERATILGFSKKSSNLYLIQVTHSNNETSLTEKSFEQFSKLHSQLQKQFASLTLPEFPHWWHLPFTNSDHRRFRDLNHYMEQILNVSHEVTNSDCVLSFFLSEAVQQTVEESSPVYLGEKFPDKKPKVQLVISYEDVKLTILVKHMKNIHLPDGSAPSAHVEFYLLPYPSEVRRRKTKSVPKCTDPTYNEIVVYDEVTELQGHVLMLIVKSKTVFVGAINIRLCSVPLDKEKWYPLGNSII
Chain of UniProt Q9BX84 (whole entry, looked up): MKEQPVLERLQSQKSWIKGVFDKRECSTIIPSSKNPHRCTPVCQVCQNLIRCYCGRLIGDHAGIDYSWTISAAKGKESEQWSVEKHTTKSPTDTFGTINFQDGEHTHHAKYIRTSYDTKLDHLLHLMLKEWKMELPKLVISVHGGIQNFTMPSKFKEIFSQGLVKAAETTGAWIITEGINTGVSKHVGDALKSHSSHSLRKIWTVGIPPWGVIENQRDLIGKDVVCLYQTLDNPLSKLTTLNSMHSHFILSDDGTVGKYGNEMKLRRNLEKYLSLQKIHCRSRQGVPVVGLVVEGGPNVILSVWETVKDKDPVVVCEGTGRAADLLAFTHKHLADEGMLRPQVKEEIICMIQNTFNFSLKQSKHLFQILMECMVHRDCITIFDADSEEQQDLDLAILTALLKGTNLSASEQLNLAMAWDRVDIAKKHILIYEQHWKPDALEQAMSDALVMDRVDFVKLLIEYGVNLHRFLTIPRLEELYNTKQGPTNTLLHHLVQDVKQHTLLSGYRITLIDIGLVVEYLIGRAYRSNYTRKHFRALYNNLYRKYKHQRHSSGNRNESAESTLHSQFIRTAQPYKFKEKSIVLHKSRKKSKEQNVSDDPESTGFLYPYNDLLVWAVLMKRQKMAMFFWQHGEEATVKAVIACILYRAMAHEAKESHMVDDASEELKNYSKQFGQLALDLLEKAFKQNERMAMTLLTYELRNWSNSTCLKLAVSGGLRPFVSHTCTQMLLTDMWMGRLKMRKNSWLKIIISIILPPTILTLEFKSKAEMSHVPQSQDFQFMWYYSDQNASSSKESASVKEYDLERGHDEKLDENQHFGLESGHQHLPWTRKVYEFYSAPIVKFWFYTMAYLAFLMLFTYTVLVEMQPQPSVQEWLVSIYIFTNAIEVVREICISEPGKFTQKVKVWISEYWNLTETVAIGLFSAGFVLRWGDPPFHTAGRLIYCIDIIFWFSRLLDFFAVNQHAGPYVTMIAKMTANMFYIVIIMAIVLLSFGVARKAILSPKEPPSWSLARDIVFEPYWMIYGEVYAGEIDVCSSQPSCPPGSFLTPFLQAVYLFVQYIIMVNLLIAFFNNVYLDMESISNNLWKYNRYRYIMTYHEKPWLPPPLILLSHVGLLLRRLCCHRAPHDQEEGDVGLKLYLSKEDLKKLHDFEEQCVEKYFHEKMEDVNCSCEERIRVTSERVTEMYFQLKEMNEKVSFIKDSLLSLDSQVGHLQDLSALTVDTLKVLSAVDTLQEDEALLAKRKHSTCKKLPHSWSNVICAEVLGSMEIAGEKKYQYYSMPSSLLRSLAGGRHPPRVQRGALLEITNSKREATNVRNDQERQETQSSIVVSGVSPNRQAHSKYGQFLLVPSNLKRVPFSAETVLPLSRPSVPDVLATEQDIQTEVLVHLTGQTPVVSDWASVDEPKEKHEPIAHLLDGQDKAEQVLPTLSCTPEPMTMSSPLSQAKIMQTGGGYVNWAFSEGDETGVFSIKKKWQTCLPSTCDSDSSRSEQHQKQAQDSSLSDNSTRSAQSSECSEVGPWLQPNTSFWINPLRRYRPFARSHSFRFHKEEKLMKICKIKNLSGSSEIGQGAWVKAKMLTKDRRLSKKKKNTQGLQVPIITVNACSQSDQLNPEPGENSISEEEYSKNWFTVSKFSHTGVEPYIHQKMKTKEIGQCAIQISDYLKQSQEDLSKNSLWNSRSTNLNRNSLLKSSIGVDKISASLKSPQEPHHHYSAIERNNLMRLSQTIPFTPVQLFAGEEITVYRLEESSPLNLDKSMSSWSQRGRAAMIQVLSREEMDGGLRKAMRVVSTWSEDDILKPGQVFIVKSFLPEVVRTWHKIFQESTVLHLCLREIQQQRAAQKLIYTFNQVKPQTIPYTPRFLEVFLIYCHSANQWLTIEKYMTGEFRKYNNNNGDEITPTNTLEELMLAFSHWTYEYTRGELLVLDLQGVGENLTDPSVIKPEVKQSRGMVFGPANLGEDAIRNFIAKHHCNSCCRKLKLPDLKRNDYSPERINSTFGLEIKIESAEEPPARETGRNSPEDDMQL
Chain of UniProt O96017 (whole entry, looked up): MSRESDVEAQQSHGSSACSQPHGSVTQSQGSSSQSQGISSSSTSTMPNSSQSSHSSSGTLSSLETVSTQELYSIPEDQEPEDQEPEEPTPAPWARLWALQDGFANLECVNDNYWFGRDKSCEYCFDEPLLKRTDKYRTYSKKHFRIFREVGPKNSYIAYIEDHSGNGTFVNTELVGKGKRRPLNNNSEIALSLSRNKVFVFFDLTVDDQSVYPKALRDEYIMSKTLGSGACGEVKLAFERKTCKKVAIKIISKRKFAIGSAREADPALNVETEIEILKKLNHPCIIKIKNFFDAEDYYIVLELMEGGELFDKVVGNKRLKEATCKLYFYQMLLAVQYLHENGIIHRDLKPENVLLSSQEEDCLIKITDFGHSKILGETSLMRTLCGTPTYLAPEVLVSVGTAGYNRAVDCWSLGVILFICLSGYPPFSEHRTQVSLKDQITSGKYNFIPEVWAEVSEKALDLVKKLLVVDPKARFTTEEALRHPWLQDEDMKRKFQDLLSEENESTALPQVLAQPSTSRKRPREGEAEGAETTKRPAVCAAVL
Chain of UniProt P11802 (whole entry, looked up): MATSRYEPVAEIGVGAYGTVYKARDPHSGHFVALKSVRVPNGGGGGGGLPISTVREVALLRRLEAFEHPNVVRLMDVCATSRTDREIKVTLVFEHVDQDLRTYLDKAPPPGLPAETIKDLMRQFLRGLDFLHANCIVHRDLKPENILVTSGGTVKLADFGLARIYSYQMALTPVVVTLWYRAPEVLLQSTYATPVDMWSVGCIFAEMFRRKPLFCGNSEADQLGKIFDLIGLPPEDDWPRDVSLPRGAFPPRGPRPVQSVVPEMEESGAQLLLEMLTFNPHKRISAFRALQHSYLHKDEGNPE

Block 1 — Compound: Ic1cccc(CSc2nnc(-c3ccncc3)o2)c1; effect on: enzyme activity; mode: inhibitor; tested at: 0.5 µM; baseline: control; quantity: remaining activity
Inhibitor of nuclear factor kappa-B kinase subunit epsilon (IKBKE, Homo sapiens, UniProt Q14164): 102%
Serine/threonine-protein kinase Chk2 (CHEK2, Homo sapiens, UniProt O96017): 102%
Protein kinase C alpha type (PRKCA, Homo sapiens, UniProt P17252): 123%
Death-associated protein kinase 2 (DAPK2, Homo sapiens, UniProt Q9UIK4): 108%
TGF-beta receptor type-1 (TGFBR1, Homo sapiens, UniProt P36897): 94.4%
Inhibitor of nuclear factor kappa-B kinase subunit beta (IKBKB, Homo sapiens, UniProt O14920): 89.3%
Tyrosine-protein kinase Lyn, isoform B (LYN, Homo sapiens, UniProt P07948): 99.6%
Cyclin-dependent kinase 4, with cyclin D1 (CDK4, Homo sapiens, UniProt P11802): 96.3%

Block 2 — method: phase 2a trial; species: idiopathic pulmonary fibrosis patients; quantity: patients with leukocytosis
SMILES: CC(C)n1cnc(-c2ccc(F)cc2)c1-c1ncc(C(=O)Nc2ccc(N3CCN(C)CC3)cc2)[nH]1
all arms, grade 4 emergent event: 0%
60 mg once daily, grade 5 emergent event: 0%
30 mg once daily, grade 3 emergent event: 0%
60 mg once daily, grade 4 emergent event: 0%
30 mg once daily, grade 5 emergent event: 0%
all arms, grade 2 emergent event: 0%

Block 3 — effect on: cell-free assay; method: competition with immobilised ligand; tested at: 1 µM; quantity: remaining binding
SMILES: Cc1c(NC(=O)c2cc(C(N)=O)nc3cc(F)ccc23)c(C(F)(F)F)nn1Cc1ccc(C(C)(C)C)cc1
Leucine-rich repeat serine/threonine-protein kinase 2 (LRRK2, Homo sapiens, UniProt Q5S007): 100%
Tyrosine-protein kinase ABL1, phosphorylated (ABL1, Homo sapiens, UniProt P00519, H396P): 100%
Serine/threonine-protein kinase tousled-like 2 (TLK2, Homo sapiens, UniProt Q86UE8): 100%
Mast/stem cell growth factor receptor Kit, autoinhibited (KIT, Homo sapiens, UniProt P10721): 100%
Tyrosine-protein kinase FRK (FRK, Homo sapiens, UniProt P42685): 90%
Ribosomal protein S6 kinase alpha-6, N-terminal kinase domain (RPS6KA6, Homo sapiens, UniProt Q9UK32): 100%
Platelet-derived growth factor receptor alpha (PDGFRA, Homo sapiens, UniProt P16234): 100%
Homeodomain-interacting protein kinase 4 (HIPK4, Homo sapiens, UniProt Q8NE63): 88%
Phosphatidylinositol 3-kinase C2 domain-containing subunit gamma (PIK3C2G, Homo sapiens, UniProt O75747): 100%
Dual specificity tyrosine-phosphorylation-regulated kinase 2 (DYRK2, Homo sapiens, UniProt Q92630): 88%
Serine/threonine-protein kinase BRSK2 (BRSK2, Homo sapiens, UniProt Q8IWQ3): 100%
Receptor-type tyrosine-protein kinase FLT3 (FLT3, Homo sapiens, UniProt P36888, F691L/ITD): 100%
Eukaryotic translation initiation factor 2-alpha kinase 1 (EIF2AK1, Homo sapiens, UniProt Q9BQI3): 100%
Transient receptor potential cation channel subfamily M member 6 (TRPM6, Homo sapiens, UniProt Q9BX84): 100%

Block 4 — cell line: HaCaT; tested at: 100 µM; time: 36 h; quantity: viability
CNCCC=C1c2ccccc2CCc2ccccc21: 5.13%
COc1cc2nc(N3CCN(C(=O)C4CCCO4)CC3)nc(N)c2cc1OC (stereo not shown): 51.9%
C[C@@H](c1nc(-c2ccc(C#N)cc2)cs1)[C@](O)(Cn1cncn1)c1cc(F)ccc1F: 12.4%
CCCC(=O)Nc1ccc(OCC(O)CNC(C)C)c(C(C)=O)c1 (stereo not shown): 87.6%
OC[C@H]1O[C@@H](O[C@@H]2[C@@H](CO)OC(O)(CO)[C@H]2O)[C@H](O)[C@@H](O)[C@H]1O (mixture of isomers): 95.9%
O=C(NC1CCN(CCCCC2(C(=O)NCC(F)(F)F)c3ccccc3-c3ccccc32)CC1)c1ccccc1-c1ccc(C(F)(F)F)cc1: 7.76%

Some of these lines once more (block 3):
Leucine-rich repeat serine/threonine-protein kinase 2 (LRRK2, Homo sapiens, UniProt Q5S007): 100%
Dual specificity tyrosine-phosphorylation-regulated kinase 2 (DYRK2, Homo sapiens, UniProt Q92630): 88%
Platelet-derived growth factor receptor alpha (PDGFRA, Homo sapiens, UniProt P16234): 100%
Phosphatidylinositol 3-kinase C2 domain-containing subunit gamma (PIK3C2G, Homo sapiens, UniProt O75747): 100%
